Experimental data from different studies.
Parts stem from different laboratories: compare values within a part only. Positions count from the first letter of the parent shown.

Series 1
Target: ABI1, truncated, D143A, DHFR fusion (Arabidopsis thaliana)
Technique: DHFR PCA, deep sequencing
Sample: yeast
Notes: methotrexate growth selection, single substitutions
With: (+)-ABA 710 µM
Reference: wild-type fitted maximum
Reading: higher = stronger binding
Measurement: relative binding score
Starting sequence: PYL1, truncated, DHFR fusion (Arabidopsis thaliana); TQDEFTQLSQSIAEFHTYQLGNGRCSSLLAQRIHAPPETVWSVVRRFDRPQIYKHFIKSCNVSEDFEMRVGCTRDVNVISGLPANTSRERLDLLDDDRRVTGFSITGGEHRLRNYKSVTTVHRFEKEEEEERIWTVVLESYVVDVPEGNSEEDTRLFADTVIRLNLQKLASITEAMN; partner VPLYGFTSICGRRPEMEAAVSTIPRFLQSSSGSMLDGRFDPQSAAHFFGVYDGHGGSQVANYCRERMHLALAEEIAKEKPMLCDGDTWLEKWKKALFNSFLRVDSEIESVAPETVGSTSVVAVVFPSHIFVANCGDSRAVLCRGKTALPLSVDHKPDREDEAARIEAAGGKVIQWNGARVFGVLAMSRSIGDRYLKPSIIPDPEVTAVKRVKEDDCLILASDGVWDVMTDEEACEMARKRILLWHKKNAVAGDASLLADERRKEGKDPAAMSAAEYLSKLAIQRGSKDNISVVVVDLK
R123V: 99%
S63W: 82.1%
F15Q: 80.3%
N149P: 17.5%
L8H: 74.9%
P83K: 8.56%
Q51G: 92%
H34M: 93.7%
R32G: 81%

Series 2
Target: CCNE2, cyclin fold, Cln2 fusion (human)
Technique: yeast growth competition, sequencing
Sample: yeast
Notes: weak parent motif
Reference: not given
Reading: higher = stronger binding
Measurement: normalised enrichment score
Starting sequence: RB1 docking peptide (human); PKPLKKLRFDIEG; partner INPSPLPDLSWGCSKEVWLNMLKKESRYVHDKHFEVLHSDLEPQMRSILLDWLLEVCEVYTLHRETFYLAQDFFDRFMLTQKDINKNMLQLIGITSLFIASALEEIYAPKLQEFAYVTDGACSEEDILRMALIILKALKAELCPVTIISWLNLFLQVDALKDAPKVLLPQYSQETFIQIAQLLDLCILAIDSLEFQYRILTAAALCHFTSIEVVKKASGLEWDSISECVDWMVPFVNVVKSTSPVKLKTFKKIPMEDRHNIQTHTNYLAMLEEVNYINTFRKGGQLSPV
F9M: 0.94
D10C: -0.233
P3W: 1.37
D10E: -0.0957
E12D: -0.104
I11F: 1.04
L4D: 1.3
K5F: -0.321

Series 3
Target: Prothrombin, mature alpha-thrombin (F2, Homo sapiens, UniProt P00734)
Technique: aptamer microarray, sandwich
Form: DNA with 2'F-ANA
Sample: in vitro
Concentration: 200 nM
Notes: whole 15-mer aptamer, many near background
With: Cy3 exosite-II aptamer, 400 nM
Reading: higher = stronger binding
Measurement: mean fluorescence intensity
Oligonucleotide: GGTTGGTGTGGTTGG
2'F-ANA at 3 6 7 10 11 15: 488 a.u.
2'F-ANA at 1 2 3 6 8 9 10 13 15: 57.9 a.u.
2'F-ANA at 3 4 5 7 8 9 10 11 12 13 15: 56 a.u.
2'F-ANA at 1 3 4 5 6 7 9 10 15: 52.1 a.u.
2'F-ANA at 2 3 4 7 8 10 11 13 14 15: 153 a.u.
2'F-ANA at 1 4 6 7 10: 56.9 a.u.
2'F-ANA at 5 6 9 11 12 14 15: 49.6 a.u.
2'F-ANA at 1 4 6 8 9 10 12 14 15: 49.3 a.u.

Single results of other studies
PhoQ, residues 284 288 289 292 302 303 ALVSVA  fold induction (PhoP, residues 12 14 15 18 19 STWGI (Escherichia coli, UniProt P23836); Sort-seq, refers to: YFP reporter; E. coli; PhoQ-PhoP variant library, with: 10 µM Mg2+; reference: high Mg2+ state, higher = stronger signaling): 1.83

Repeated from above (series 3):
2'F-ANA at 1 2 3 6 8 9 10 13 15: 57.9 a.u.
2'F-ANA at 3 4 5 7 8 9 10 11 12 13 15: 56 a.u.
